Results of several laboratories.
Each line is one published result; not all experiments were run side by side. “And” joins repeats or separate records; there may be more than shown. ± gives the spread as reported.
SLC6A3: Sodium-dependent dopamine transporter (SLC6A3, Homo sapiens, UniProt Q01959)
UniProt Q01959, sequence (whole entry, looked up): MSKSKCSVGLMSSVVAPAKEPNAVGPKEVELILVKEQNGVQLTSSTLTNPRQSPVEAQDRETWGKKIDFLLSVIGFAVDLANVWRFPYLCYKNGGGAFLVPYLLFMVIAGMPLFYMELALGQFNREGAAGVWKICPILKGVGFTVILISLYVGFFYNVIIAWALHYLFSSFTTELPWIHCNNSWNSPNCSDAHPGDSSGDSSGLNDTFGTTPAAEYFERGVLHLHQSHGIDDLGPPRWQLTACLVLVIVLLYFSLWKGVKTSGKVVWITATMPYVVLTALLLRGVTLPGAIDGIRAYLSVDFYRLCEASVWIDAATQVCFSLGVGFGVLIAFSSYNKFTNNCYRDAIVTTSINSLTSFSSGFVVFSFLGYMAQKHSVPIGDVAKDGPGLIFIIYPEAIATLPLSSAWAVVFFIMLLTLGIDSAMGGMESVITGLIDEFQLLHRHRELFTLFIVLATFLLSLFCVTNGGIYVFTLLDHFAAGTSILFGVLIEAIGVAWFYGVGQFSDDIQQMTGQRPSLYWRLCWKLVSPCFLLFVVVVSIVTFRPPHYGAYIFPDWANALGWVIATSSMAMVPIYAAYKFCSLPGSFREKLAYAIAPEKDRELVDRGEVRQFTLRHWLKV
SIGMAR1: Sigma non-opioid intracellular receptor 1 (SIGMAR1, Homo sapiens, UniProt Q99720)
UniProt Q99720, sequence (whole entry, looked up): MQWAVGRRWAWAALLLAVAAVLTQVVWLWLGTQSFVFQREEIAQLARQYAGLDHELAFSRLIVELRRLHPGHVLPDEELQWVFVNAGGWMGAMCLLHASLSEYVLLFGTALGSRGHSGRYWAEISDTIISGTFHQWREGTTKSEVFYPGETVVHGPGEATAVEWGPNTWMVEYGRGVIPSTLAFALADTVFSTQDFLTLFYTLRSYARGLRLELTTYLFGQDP
ache: Acetylcholinesterase (ache, Electrophorus electricus, UniProt O42275)
UniProt O42275, sequence (whole entry, looked up): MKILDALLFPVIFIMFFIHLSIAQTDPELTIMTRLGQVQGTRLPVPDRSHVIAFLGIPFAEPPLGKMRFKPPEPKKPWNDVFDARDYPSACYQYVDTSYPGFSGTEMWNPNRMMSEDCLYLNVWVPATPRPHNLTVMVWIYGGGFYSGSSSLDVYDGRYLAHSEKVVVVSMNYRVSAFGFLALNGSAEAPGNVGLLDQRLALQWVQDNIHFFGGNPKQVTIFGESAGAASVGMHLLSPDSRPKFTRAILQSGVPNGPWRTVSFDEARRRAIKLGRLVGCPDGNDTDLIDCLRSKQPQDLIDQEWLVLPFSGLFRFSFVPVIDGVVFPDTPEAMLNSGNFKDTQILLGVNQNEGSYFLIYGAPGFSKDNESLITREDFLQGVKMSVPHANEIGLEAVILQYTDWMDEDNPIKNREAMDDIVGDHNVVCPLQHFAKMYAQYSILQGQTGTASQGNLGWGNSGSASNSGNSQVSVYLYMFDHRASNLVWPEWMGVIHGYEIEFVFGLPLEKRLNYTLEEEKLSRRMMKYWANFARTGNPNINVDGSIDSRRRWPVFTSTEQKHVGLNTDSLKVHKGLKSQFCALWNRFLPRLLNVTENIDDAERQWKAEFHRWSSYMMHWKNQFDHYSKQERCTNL
OPRK1: Kappa-type opioid receptor (OPRK1, Homo sapiens, UniProt P41145)
UniProt P41145, sequence (whole entry, looked up): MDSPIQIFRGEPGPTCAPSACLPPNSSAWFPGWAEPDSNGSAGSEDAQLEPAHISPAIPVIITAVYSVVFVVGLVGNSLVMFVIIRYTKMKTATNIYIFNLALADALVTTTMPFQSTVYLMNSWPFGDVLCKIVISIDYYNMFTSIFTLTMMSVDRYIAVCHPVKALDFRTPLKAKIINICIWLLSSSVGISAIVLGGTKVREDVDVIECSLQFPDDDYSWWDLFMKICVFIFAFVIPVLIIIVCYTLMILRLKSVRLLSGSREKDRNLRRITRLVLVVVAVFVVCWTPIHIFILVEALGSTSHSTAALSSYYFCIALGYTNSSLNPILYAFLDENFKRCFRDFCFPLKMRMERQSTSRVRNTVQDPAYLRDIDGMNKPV
Chymotrypsinogen A: Chymotrypsinogen A (Bos taurus, UniProt P00766)
CNR2: Cannabinoid receptor 2 (CNR2, Homo sapiens, UniProt P34972)
UniProt P34972, sequence (whole entry, looked up): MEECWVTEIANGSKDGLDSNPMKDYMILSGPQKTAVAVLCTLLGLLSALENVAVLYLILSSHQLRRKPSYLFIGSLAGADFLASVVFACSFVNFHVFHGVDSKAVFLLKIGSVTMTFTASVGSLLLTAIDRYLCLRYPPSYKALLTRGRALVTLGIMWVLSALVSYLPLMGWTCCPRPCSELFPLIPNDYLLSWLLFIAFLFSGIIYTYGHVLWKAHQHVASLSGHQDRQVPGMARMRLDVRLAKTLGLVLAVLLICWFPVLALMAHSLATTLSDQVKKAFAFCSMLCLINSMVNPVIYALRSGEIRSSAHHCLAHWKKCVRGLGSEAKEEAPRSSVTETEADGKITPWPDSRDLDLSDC
SLC6A2: Sodium-dependent noradrenaline transporter (SLC6A2, Homo sapiens, UniProt P23975)
UniProt P23975, sequence (whole entry, looked up): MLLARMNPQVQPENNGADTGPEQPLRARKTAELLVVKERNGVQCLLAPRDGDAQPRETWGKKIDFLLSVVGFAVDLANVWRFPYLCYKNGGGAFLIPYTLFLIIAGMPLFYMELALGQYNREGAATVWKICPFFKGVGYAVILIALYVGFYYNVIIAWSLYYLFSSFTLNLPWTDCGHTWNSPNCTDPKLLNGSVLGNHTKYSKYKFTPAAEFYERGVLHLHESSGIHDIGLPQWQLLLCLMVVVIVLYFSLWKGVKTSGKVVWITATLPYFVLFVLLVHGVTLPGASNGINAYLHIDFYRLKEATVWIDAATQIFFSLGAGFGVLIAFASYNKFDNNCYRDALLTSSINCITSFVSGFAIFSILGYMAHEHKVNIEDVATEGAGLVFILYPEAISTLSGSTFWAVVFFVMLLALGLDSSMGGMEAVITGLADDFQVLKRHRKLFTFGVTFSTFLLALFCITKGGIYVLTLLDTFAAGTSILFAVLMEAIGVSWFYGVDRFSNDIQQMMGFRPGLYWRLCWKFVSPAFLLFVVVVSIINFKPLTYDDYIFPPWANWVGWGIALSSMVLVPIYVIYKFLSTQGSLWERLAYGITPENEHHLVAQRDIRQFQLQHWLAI
UniProt P23811, sequence (whole entry, looked up): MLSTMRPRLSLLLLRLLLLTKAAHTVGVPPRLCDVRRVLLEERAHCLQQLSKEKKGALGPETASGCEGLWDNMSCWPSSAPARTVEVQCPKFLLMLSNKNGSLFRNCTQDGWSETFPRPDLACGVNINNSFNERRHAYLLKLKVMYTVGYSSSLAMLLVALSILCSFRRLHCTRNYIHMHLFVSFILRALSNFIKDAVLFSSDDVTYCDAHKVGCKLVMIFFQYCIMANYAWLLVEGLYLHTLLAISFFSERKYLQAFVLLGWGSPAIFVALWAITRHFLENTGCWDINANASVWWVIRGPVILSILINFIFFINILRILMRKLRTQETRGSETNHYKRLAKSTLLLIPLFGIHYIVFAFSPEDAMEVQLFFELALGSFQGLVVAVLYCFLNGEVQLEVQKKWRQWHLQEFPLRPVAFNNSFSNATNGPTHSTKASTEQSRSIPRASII
UniProt Q86X55, sequence (whole entry, looked up): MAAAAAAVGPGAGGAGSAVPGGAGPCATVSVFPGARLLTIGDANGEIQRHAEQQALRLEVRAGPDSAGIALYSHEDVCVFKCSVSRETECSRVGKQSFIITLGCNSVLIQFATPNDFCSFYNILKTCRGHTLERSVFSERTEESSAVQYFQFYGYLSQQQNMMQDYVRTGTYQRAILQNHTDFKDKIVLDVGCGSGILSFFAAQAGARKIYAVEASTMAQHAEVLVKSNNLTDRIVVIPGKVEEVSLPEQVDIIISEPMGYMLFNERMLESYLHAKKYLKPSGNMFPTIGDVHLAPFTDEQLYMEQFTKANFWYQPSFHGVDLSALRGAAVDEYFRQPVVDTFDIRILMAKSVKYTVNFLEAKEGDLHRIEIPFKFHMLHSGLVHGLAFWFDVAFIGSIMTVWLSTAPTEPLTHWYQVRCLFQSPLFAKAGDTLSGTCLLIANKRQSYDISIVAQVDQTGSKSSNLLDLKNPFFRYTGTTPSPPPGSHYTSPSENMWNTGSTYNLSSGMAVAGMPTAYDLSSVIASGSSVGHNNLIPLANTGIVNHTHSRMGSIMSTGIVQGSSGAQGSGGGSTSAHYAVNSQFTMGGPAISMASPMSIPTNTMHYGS
UniProt P34969, sequence (whole entry, looked up): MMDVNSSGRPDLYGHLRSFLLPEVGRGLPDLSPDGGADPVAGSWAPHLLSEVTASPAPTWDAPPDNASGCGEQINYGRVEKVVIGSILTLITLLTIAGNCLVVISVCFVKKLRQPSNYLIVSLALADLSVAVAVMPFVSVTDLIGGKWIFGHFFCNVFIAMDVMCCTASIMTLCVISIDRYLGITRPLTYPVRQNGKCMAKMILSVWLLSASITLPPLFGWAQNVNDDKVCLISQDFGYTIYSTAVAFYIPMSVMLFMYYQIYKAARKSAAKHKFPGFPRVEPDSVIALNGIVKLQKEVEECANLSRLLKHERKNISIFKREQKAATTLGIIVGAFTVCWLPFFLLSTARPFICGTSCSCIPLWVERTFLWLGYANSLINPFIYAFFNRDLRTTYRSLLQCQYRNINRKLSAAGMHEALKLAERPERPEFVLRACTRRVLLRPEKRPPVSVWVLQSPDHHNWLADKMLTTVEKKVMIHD
UniProt P41143, sequence (whole entry, unmodified, looked up): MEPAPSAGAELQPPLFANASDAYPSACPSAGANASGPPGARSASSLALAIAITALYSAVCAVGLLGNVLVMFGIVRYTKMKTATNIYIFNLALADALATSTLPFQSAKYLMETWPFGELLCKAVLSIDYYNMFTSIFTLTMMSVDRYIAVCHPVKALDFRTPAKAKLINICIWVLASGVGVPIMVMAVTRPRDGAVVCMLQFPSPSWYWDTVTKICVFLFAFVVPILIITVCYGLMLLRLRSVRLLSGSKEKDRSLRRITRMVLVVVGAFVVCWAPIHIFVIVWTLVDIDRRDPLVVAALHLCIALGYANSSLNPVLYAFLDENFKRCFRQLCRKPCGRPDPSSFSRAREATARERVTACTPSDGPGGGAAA

SMILES	target or system	test	test system	conditions	endpoint	value
COC(=O)[C@H]1[C@@H](c2ccc(Cl)c(Cl)c2)C[C@@H]2CC[C@H]1N2CCCCCCCCCCCc1c2ccccc2cc2ccccc12	SLC6A3	ligand displacement, radioligand	–	pH 7.4	Ki	0.0089 µM
COc1cccc(COc2ccc3c(c2)[C@H]2CCN[C@@]2(C)CO3)c1	SIGMAR1	cell-free assay, radioligand	–	–	Ki	0.0037 µM
O=C1c2ccccc2CCCN1CCCCN1CCN(c2cccc(Cl)c2Cl)CC1	D(1B) dopamine receptor (DRD5, Homo sapiens, UniProt P21918)	ligand displacement, radioligand	–	–	Ki	3.58 µM
O=S(=O)(N/N=C/c1ccc(OS(=O)(=O)c2ccc(Br)cc2)cc1)c1cc(Cl)ccc1Cl	ache	enzyme activity, inhibitor, Ellman	–	–	Ki	0.0313 µM
O=C(Cc1ccc(Cl)c(Cl)c1)N1CCN(Cc2ccccc2)[C@@H]2CCC[C@H](N3CCCC3)[C@H]21 (relative stereo)	OPRK1	cell-free assay	–	–	Ki	0.26 µM
COC(=O)[C@H]1[C@@H](c2ccc(Cl)c(Cl)c2)C[C@@H]2CC[C@H]1N2CCOc1ccc2cc3ccccc3cc2c1	SLC6A3	ligand displacement, radioligand	–	pH 7.4	Ki	0.05 µM
CC(=O)c1cccc(/N=N/c2cccc([B-](F)(F)F)c2)c1	Chymotrypsinogen A	enzyme activity, competitive inhibitor	buffer with 2 vol% DMSO	pH 7.81, 25 °C, thermally adapted trans state, added: Suc-AAPF-AMC	Ki	219 µM
Cc1ccc(OCCN(C)C)cc1C(=O)N[C@H](C)c1cc(-c2cnn(CC(C)(C)O)c2)nc2ccccc12	Vero E6	–	–	125 µM	viability	100% and 87.1%
CC(=O)NCCCC[C@H](NC(=O)[C@H](CCCNC(=N)NCCC[C@H]1O[C@@H](n2cnc3c(N)ncnc32)[C@H](O)[C@@H]1O)NC(=O)[C@@H]1CCCN1C(=O)[C@H](C)NC(=O)[C@H](CCCCN)NC(C)=O)C(=O)N[C@@H](CCC(N)=O)C(=O)N[C@@H](CC(C)C)C(=O)N[C@@H](C)C(N)=O (relative stereo)	Histone-arginine methyltransferase CARM1 (CARM1, Homo sapiens, UniProt Q86X55)	enzyme activity, inhibitor	–	–	Ki	0.066 µM
O=C(O)c1ccc(/N=N/c2cccc([B-](F)(F)F)c2)cc1	Chymotrypsinogen A	enzyme activity, competitive inhibitor	buffer with 2 vol% DMSO	pH 7.81, 25 °C, thermally adapted trans state, added: Suc-AAPF-AMC	Ki	78.7 µM
OC1Cc2ccccc2CC1N1CCC2(C=Cc3cc(Br)ccc32)CC1 (racemic)	SIGMAR1	binding, radioligand displacement	HEK293 expressing human σ1	added: [3H](+)-pentazocine	Ki	0.0017 ± 0.0003 µM
Cc1ccc(OCCN(C)C)cc1C(=O)N[C@H](C)c1cc(-c2cncs2)nc2ccccc12	Vero E6	–	–	250 µM	viability	-3.85% and 0.192%
COC(=O)[C@H]1[C@@H](c2ccc(Cl)c(Cl)c2)C[C@@H]2CC[C@H]1N2Cc1c2ccccc2cc2ccccc12	SLC6A3	ligand displacement, radioligand	–	pH 7.4	Ki	0.62 µM
O=C(Cc1ccc(Cl)c(Cl)c1)N1CCN[C@@H]2COC[C@H](N3CCCC3)[C@H]21	OPRK1	cell-free assay	–	–	Ki	0.05 µM
Cc1ccc(/N=N/c2cccc([B-](F)(F)F)c2)cc1	Chymotrypsinogen A	enzyme activity, competitive inhibitor	buffer with 2 vol% DMSO	pH 7.81, 25 °C, thermally adapted trans state, added: Suc-AAPF-AMC	Ki	3.04 µM and 3 µM
CC(C)(C)C(=O)OCOP(=O)(OCOC(=O)C(C)(C)C)C1CCCN(O)C1=O (stereo not drawn)	COLO 205	–	–	–	CC50	40.9 µM
Nc1ncnc2c1c(-c1ccc(Oc3ccccc3)cc1)nn2C1CCCC1	Tyrosine-protein kinase CSK (CSK, Homo sapiens, UniProt P41240, T266M)	enzyme activity, inhibitor	–	–	Ki	1.42 µM
CN(C)[C@H](CNC(=O)/C=C/c1cccc2ccccc12)Cc1ccc(O)cc1	OPRK1	cell-free assay	–	–	Ki	0.19 µM
CC(C)(C)c1ccc(/N=N/c2cccc([B-](F)(F)F)c2)cc1	Chymotrypsinogen A	enzyme activity, inhibitor	–	pH 7.81, 25 °C, cis-enriched photostationary state, added: Suc-AAPF-AMC	Ki	> 2000 µM
COc1ccc2c(c1)c(CCN(C)C)cn2Cc1ccccc1	5-hydroxytryptamine receptor 7, isoform 5-HT7b (HTR7, Homo sapiens, UniProt P34969)	binding, radioligand displacement	HEK293 membranes	1 h, 37 °C, 5-HT7b isoform, added: 0.6 nM [3H]-5-CT	Ki	0.937 ± 0.072 µM

SMILES	target or system	test	test system	conditions	endpoint	value
Cc1cc(O)cc(C)c1C[C@H](N)C(=O)N[C@H](CCCNC(=N)N)C(=O)N[C@@H](Cc1ccccc1)C(=O)N(C)CC(=O)N(C)Cc1cc(C(F)(F)F)cc(C(F)(F)F)c1	Delta-type opioid receptor (OPRD1, Homo sapiens, UniProt P41143, M132A)	–	–	–	Ki	0.147 µM
CC(C)C[C@H](NC(=O)CNC(=O)[C@H](CCC(N)=O)NC(=O)[C@H](CC(C)C)NC(=O)[C@H](CC(C)C)NC(=O)[C@H](CCCNC(=N)N)NC(=O)[C@H](CCC(N)=O)NC(=O)[C@H](CC(C)C)NC(=O)[C@H](CCCNC(=N)N)NC(=O)[C@H](C)NC(=O)[C@H](CO)NC(=O)[C@H](CC(=O)O)NC(=O)[C@H](CCC(N)=O)NC(=O)[C@H](CC(C)C)NC(=O)[C@H](CCCNC(=N)N)NC(=O)[C@H](CO)NC(=O)[C@H](Cc1ccc(O)cc1)NC(=O)[C@H](CCC(=O)O)NC(=O)[C@H](CO)NC(=O)[C@@H](NC(=O)[C@H](Cc1ccccc1)NC(=O)[C@@H](NC(=O)[C@H](Cc1ccc(C(=O)c2ccccc2)cc1)NC(=O)[C@H](CC(=O)O)NC(=O)[C@H](CO)NC(=O)[C@@H](N)Cc1c[nH]cn1)[C@@H](C)O)[C@@H](C)O)C(=O)N[C@H](C(N)=O)C(C)C	Sctr (Rattus norvegicus, UniProt P23811)	ligand displacement in cells, radioligand	–	–	Ki	> 1 µM
C[C@@H](Cc1ccsc1)NC(=O)NC[C@H](Cc1ccc(O)cc1)N(C)C	Beta-2 adrenergic receptor (ADRB2, Homo sapiens, UniProt P07550)	cell-free assay	–	–	Ki	> 50 µM
COc1ccccc1/N=N/c1cccc([B-](F)(F)F)c1	Chymotrypsinogen A	enzyme activity, inhibitor	–	pH 7.81, 25 °C, cis-enriched photostationary state, added: Suc-AAPF-AMC	Ki	114 µM
O=S(=O)(N/N=C/c1ccc(OS(=O)(=O)c2ccc(Br)cc2)cc1)c1ccc(Cl)cc1	ache	enzyme activity, inhibitor, Ellman	–	–	Ki	0.0148 µM
Cc1ccccc1/N=N/c1cccc([B-](F)(F)F)c1	Chymotrypsinogen A	enzyme activity, inhibitor	–	pH 7.81, 25 °C, cis-enriched photostationary state, added: Suc-AAPF-AMC	Ki	63.6 µM
CCCCCn1ccc(C(=O)NC(C)(C)c2ccc(CNC(C)=O)cc2)n1	CNR2	ligand displacement, radioligand	–	–	Ki	1.63 µM
COC(=O)[C@H]1[C@@H](c2ccc(Cl)c(Cl)c2)C[C@@H]2CC[C@H]1N2CCCCCc1c2ccccc2cc2ccccc12	SLC6A3	ligand displacement, radioligand	–	pH 7.4	Ki	0.15 µM
NC1CCSC1=O (stereo not drawn)	Carbonic anhydrase 9 (CA9, Homo sapiens, UniProt Q16790)	CO2 hydration activity, inhibitor, stopped-flow CO2 hydration	–	room temperature preincubation	Ki	> 100 µM
Cc1ccc(/N=N/c2ccc(C)c([B-](F)(F)F)c2)cc1	Chymotrypsinogen A	enzyme activity, inhibitor	–	pH 7.81, 25 °C, cis-enriched photostationary state, added: Suc-AAPF-AMC	Ki	> 2000 µM
CCCNC(=O)[C@H]1O[C@@H]1C(=O)N[C@H](C(=O)N1CCC[C@H]1C(=O)OCC1=C2C(C)=CC(C)=[N+]2[B-](C)(C)n2c(C)cc(C)c21)[C@@H](C)CC	Cathepsin B (CTSB, Homo sapiens, UniProt P07858)	enzyme activity, irreversible inhibitor	–	pH 5.5, 25 °C, irradiated 395-750 nm, 15 min, added: Z-Arg-Arg-AMC	Ki	0.51 ± 0.009 µM
CCOC(=O)C(CC)(CC)NC(=O)c1ccc(C2CC2)c(Cc2ccc(F)cc2)n1	CNR2	ligand displacement, radioligand	–	cell membranes	Ki	0.0002 µM
O=C1NC2(CC2)COc2ncc(F)cc2[C@H]2COCCN2c2ccn3ncc1c3n2	–	–	Sprague-Dawley rat, male, thymus	oral, 10 mg/kg/day, 4 weeks	organ weight	0.724 ± 0.106 g
COc1cc2c(cc1O)C(CCc1ccc(Cl)cc1)N(C)CC2 (stereo not drawn)	SLC6A2	cell-free assay, radioligand	–	–	Ki	1.4 µM
Cc1cc(Oc2nc(N3CC[C@@H](c4ccncc4)C3)ncc2F)[nH]n1	Mycobacterium tuberculosis	–	THP-1, H37Rv non-replicating	0.3001 µM, day 4	normalised growth	1.89% and 7.55%
F[B-](F)(F)c1cccc(/N=N/c2ccccc2I)c1	Chymotrypsinogen A	enzyme activity, competitive inhibitor	buffer with 2 vol% DMSO	pH 7.81, 25 °C, thermally adapted trans state, added: Suc-AAPF-AMC	Ki	50.2 µM
O=[N+]([O-])c1ccc(S(=O)(=O)Oc2ccc(/C=N/NS(=O)(=O)c3cc(Cl)ccc3Cl)cc2)cc1	ache	enzyme activity, inhibitor, Ellman	–	–	Ki	0.0101 µM and 0.0184 µM
C[C@@H](CN1CCC(Cc2ccccc2)CC1)[C@@H](O)c1ccc(O)cc1	SLC6A2	binding, inhibitor	–	–	Ki	1.25 µM
N=C(N)NCCC[C@@H](N)C(=O)N[C@@H](CCCNC(=N)N)C(=O)N1CCC[C@H]1C(=O)N1C[C@H](O)C[C@H]1C(=O)NCC(=O)N[C@@H](Cc1cccs1)C(=O)N[C@@H](CO)C(=O)N1Cc2ccccc2C[C@@H]1C(=O)N1[C@H](C(=O)N[C@@H](CCCNC(=N)N)C(=O)O)C[C@@H]2CCCC[C@@H]21	bradykinin B2 receptor (rat)	–	rat brain membranes	added: [3H]bradykinin	Ki	> 10 µM

Excerpt of the above:
SMILES	target or system	test	test system	conditions	endpoint	value
Cc1cc(O)cc(C)c1C[C@H](N)C(=O)N[C@H](CCCNC(=N)N)C(=O)N[C@@H](Cc1ccccc1)C(=O)N(C)CC(=O)N(C)Cc1cc(C(F)(F)F)cc(C(F)(F)F)c1	Delta-type opioid receptor (OPRD1, Homo sapiens, UniProt P41143, M132A)	–	–	–	Ki	0.147 µM
CC(C)C[C@H](NC(=O)CNC(=O)[C@H](CCC(N)=O)NC(=O)[C@H](CC(C)C)NC(=O)[C@H](CC(C)C)NC(=O)[C@H](CCCNC(=N)N)NC(=O)[C@H](CCC(N)=O)NC(=O)[C@H](CC(C)C)NC(=O)[C@H](CCCNC(=N)N)NC(=O)[C@H](C)NC(=O)[C@H](CO)NC(=O)[C@H](CC(=O)O)NC(=O)[C@H](CCC(N)=O)NC(=O)[C@H](CC(C)C)NC(=O)[C@H](CCCNC(=N)N)NC(=O)[C@H](CO)NC(=O)[C@H](Cc1ccc(O)cc1)NC(=O)[C@H](CCC(=O)O)NC(=O)[C@H](CO)NC(=O)[C@@H](NC(=O)[C@H](Cc1ccccc1)NC(=O)[C@@H](NC(=O)[C@H](Cc1ccc(C(=O)c2ccccc2)cc1)NC(=O)[C@H](CC(=O)O)NC(=O)[C@H](CO)NC(=O)[C@@H](N)Cc1c[nH]cn1)[C@@H](C)O)[C@@H](C)O)C(=O)N[C@H](C(N)=O)C(C)C	Sctr (Rattus norvegicus, UniProt P23811)	ligand displacement in cells, radioligand	–	–	Ki	> 1 µM
C[C@@H](Cc1ccsc1)NC(=O)NC[C@H](Cc1ccc(O)cc1)N(C)C	Beta-2 adrenergic receptor (ADRB2, Homo sapiens, UniProt P07550)	cell-free assay	–	–	Ki	> 50 µM
